Measurements of several laboratories.
Compare with care: the assays were run in different laboratories. Numbers after ± are the reported error.

OC(CCN1CCCCC1)(c1ccccc1)C1CC2C=CC1C2 (stereo not drawn) — result for “beta power, EEG, Fz Cz”: 5.2 µV² (resting-state EEG; healthy elderly humans; oral, 2 mg, eyes open, LS mean).
N#Cc1ccn2c(-c3ccncc3)c(-c3ccc(F)cc3)nc2c1: “log2 fold change” 0.231 (kinase binding, competitor, MIB/MS competition, measured: CAK1; Candida albicans cell lysate; 10 µM; baseline: DMSO).
CC(C)NCC(O)c1ccc(O)c(O)c1 (stereo not drawn) gave a sarcomere length of 1.72 µm (ventricular cardiomyocytes, C57BL/6 mouse; dose not given, 0.084 s).
N=C(N)NCCC[C@H](NC(=O)[C@H](CCCNC(=N)N)NC(=O)[C@H](CCCCN)NC(=O)[C@H](CCC(N)=O)NC(=O)[C@H](CCCCN)NC(=O)[C@H](Cc1ccc(O)cc1)NC(=O)[C@@H](N)CCCCN)C(=O)N[C@@H](CO)C(=O)N[C@@H](Cc1ccc(O)cc1)C(=O)N[C@@H](CCCCN)C(=O)O: “change in VAS score” -23.2 ± 19.4 mm (human, dentin hypersensitivity patients; topical to tooth, 10 µg/tooth repeated, day 36, phase 1/2a trial, higher-VAS tooth, with: cold water at 4°C; direction not given).
NCC(=O)Nc1cncc(-c2nn3c(=O)cc(N4CCNCC4)nc3s2)c1 gave a median inhibition of 9.05% (ADP-induced platelet aggregation, light transmission aggregometry; human, stable CAD on aspirin, platelets ex vivo; subcutaneous, 0.075 mg/kg, 360 min post-dose, with: ADP 20 µM).
O=C(O)CNC(=O)Cc1ccccc1 has a sarcomere length of 1.7 µm (ventricular cardiomyocytes, C57BL/6 mouse; dose not given, 0.46 s).
CN[C@@H]1COc2c(S(=O)(=O)NC(=O)Nc3c4c(cc5c3CCC5)CCC4)cnn2C1 has an inhibition of 97.9% (measured: IL-1β; human participants, whole blood ex vivo; 300 mg twice daily, multiple doses, 48 h, with: LPS/ATP; baseline: baseline).
C[C@H]1C[C@H]2CSC(N)=N[C@@]2(c2nc(NC(=O)c3ccc(OC(F)F)cn3)cs2)CO1: “percent change from baseline” -45.4% (measured: Aβx-40; healthy adults, plasma; 160 mg single dose, 4 h post-dose; baseline: placebo).
Under “median progression-free survival”, CCN1CCN(Cc2ccc(Nc3ncc(F)c(-c4cc(F)c5nc6n(c5c4)[C@H](C)CCC6)n3)nc2)CC1 is recorded as 10.6 months (human advanced solid tumours; 500 mg, phase Ia monotherapy RECIST 1.1).

A few entries again:
CN[C@@H]1COc2c(S(=O)(=O)NC(=O)Nc3c4c(cc5c3CCC5)CCC4)cnn2C1 has an inhibition of 97.9% (measured: IL-1β; human participants, whole blood ex vivo; 300 mg twice daily, multiple doses, 48 h, with: LPS/ATP; baseline: baseline).
